Measured values collected from several papers.
Protocols differ between the studies behind these lines. ± gives the spread as reported.

For `CC(=O)CCC1C(=O)NC(C(C)C)C(=O)NC(Cc2cc(O)cc(F)c2)C(=O)N2CCCC(N2)C(=O)OC(C(C)=CC=CC(=O)N2CCCCO2)CC=CC=CC(O)C(C)C1O` (centres unmarked), the EC50 was 21 ± 3 nM (hepatitis C virus genotype 2a JFH-1; item: HCV RNA; Huh-7 replicon; 72 h).
For `CC(=O)Oc1ccc(Cn2ccc(=O)[nH]c2=O)cc1C1OC(c2ccc(Cl)cc2)=NN1C(C)=O` (centres unmarked), the EC50 was > 20000 nM (human cytomegalovirus; cytopathic effect; HEL fibroblasts, AD-169).
`O=C(CC12CC3CC(CC(C3)C1)C2)NC12CCC(C(=O)NC3CCN(S(=O)(=O)c4cc(C(=O)Nc5cc(F)c(F)c(F)c5)ccc4F)CC3)(CC1)CC2` has an EC50 of 560 nM (Hepatitis B virus; viral replication, qPCR, item: HBV DNA; HepAD38; 4 days).
`CC(=O)Oc1ccc(Cn2ccc(=O)[nH]c2=O)cc1C1OC(c2cccc(Cl)c2)=NN1C(C)=O` (centres unmarked) has an EC50 of > 100000 nM (human cytomegalovirus; cytopathic effect; HEL fibroblasts, Davis).
`C/C=C/c1ccc(OC(C)=O)c(OC)c1` gave an EC50 of < 210 µg/mL (Spodoptera frugiperda; antifeedant activity, no-choice test; larvae, Zea mays).
With `CC(=O)Oc1ccc(Cn2nc(C)c(=O)[nH]c2=O)cc1C1OC(c2cccc(Cl)c2)=NN1C(C)=O` (centres unmarked) the EC50 was > 20000 nM (human cytomegalovirus; cytopathic effect; HEL fibroblasts, AD-169).
With `CC(=O)CCC1C(=O)NC(C(C)C)C(=O)NC(Cc2cccc(O)c2)C(=O)N2CCCC(N2)C(=O)OC(C(C)=CC=CC(=O)N2CCCCO2)CC=CC=CC(O)C(C)C1O` (centres unmarked) the EC50 was 63 ± 4 nM (hepatitis C virus genotype 1a H77; item: HCV RNA; Huh-7 replicon; 72 h).
For `O=C(Nc1cc(F)c(F)c(F)c1)c1ccc(F)c(S(=O)(=O)N2CCC(NC(=O)c3ccc(N4CCN(C(=O)CC56CC7CC(CC(C7)C5)C6)CC4)cc3)CC2)c1`, the EC50 was 930 nM (Hepatitis B virus; viral replication, qPCR, item: HBV DNA; HepAD38; 4 days).
`CC(=O)Oc1ccc(Cn2ccc(=O)[nH]c2=O)cc1C1OC(c2ccccc2)=NN1C(C)=O` (centres unmarked) has an EC50 of > 100000 nM (human cytomegalovirus; cytopathic effect; HEL fibroblasts, Davis).
`O=C(CN1CCN(C(=O)CC23CC4CC(CC(C4)C2)C3)CC1)NC1CCN(S(=O)(=O)c2cc(C(=O)Nc3cc(F)c(F)c(F)c3)ccc2F)CC1` has an EC50 of 570 nM (Hepatitis B virus; viral replication, qPCR, item: HBV DNA; HepAD38; 4 days).
The EC50 of `COc1ccccc1-c1n[nH]c2nc(N[C@H]3CC[C@H](NS(=O)(=O)CC(C)C)CC3)ncc12` is reported as 0.76 ± 0.004 nM (Leishmania donovani; LdBOB CRK12 single knock-out, promastigotes).
For `CC(=O)Oc1ccc(Cn2cc(C)c(=O)[nH]c2=O)cc1C1OC(c2ccccc2)=NN1C(C)=O` (centres unmarked), the EC50 was > 100000 nM (human cytomegalovirus; cytopathic effect; HEL fibroblasts, AD-169).
`O=C(CC12CC3CC(CC(C3)C1)C2)NCCOCCOCC(=O)NC1CCN(S(=O)(=O)c2cc(C(=O)Nc3cc(F)c(F)c(F)c3)ccc2F)CC1` has an EC50 of 1420 nM (Hepatitis B virus; viral replication, qPCR, item: HBV DNA; HepAD38; 6 days).
`COc1ccc(NC(=O)c2cn(Cc3ccc(F)cc3)cc(O)c2=O)cc1` has an EC50 of 780 ± 230 nM (human cytomegalovirus; viral replication, GFP reporter virus; HFF; 168 h).
`Cc1cn(C2CC(N(C)C)C(CO)O2)c(=O)[nH]c1=O` (centres unmarked) gave an EC50 of > 370 nM (Punta Toro virus; viral replication; Vero).
`CC(=O)Oc1ccc(Cn2cc(F)c(=O)[nH]c2=O)cc1C1OC(c2ccc(Cl)cc2)=NN1C(C)=O` (centres unmarked) gave an EC50 of > 20000 nM (human cytomegalovirus; cytopathic effect; HEL fibroblasts, AD-169).
The EC50 of `CCCC[C@@H](O)C[C@@H](C)C[C@H](NC(=O)[C@@H]1C[C@H](C)CN1C(=O)/C=C/[C@@H](C)CC)C(=O)N[C@H](C(=O)NC(C)(C)C(=O)N[C@@H](CC(C)C)C(=O)N[C@@H](CC(C)C)C(=O)NC(C)(C)C(=O)NC(C)(C)C(=O)NCCC(=O)N[C@@H](C)CN(C)C)[C@H](O)C(C)C` is reported as 2.8 ± 1.4 nM (Trypanosoma cruzi; amastigote replication, high-content imaging; C2C12, CA-I/72; 72 h).
`C=C1C(=O)O[C@H]2C[C@H](C)C(/C=C/C(C)=O)=CC[C@H]12` gave an EC50 of > 20000 nM (Punta Toro virus; viral replication; Vero).
`CCC1c2cc(OC)c(O)cc2C(c2ccc(O)c(OC)c2)C1C` (centres unmarked) gave an EC50 of 2530 µg/mL (Spodoptera frugiperda; antifeedant activity, no-choice test; larvae, Zea mays).
The EC50 of `O=C(Cc1csc2nc(-c3ccc(Br)cc3)cn12)NN=C1CCCC1` is reported as > 100 µg/mL (Coxsackie B4 virus; viral cytopathicity, microscopy; Vero).
With `O=C(NCc1cc(Cl)ccc1F)c1cn(Cc2ccc(F)cc2)cc(O)c1=O` the EC50 was 700 ± 190 nM (human cytomegalovirus; viral replication, GFP reporter virus; HFF; 168 h).
The EC50 of `CC(=O)Oc1ccc(Cn2cc(C)c(=O)[nH]c2=O)cc1C1OC(c2cccc(Cl)c2)=NN1C(C)=O` (centres unmarked) is reported as > 20000 nM (human cytomegalovirus; cytopathic effect; HEL fibroblasts, Davis).
`C1CCCCCC2(CCCCC1)OOCCCOO2` gave an EC50 of 9200 nM (hepatitis E virus; replicon RNA replication, NanoLuc reporter; PLC/PRF/5; 72 h).
For `O=C(CC1CCN(C(=O)CC23CC4CC(CC(C4)C2)C3)CC1)NC1CCN(S(=O)(=O)c2cc(C(=O)Nc3cc(F)c(F)c(F)c3)ccc2F)CC1`, the EC50 was 650 nM (Hepatitis B virus; viral replication, qPCR, item: HBV DNA; HepAD38; 4 days).
`CC(=O)Oc1ccc(Cn2cc(F)c(=O)[nH]c2=O)cc1C1OC(c2ccccc2)=NN1C(C)=O` (centres unmarked) has an EC50 of > 100000 nM (human cytomegalovirus; cytopathic effect; HEL fibroblasts, Davis).
The EC50 of `CCCCCCCCCC(=O)OCC1OC(n2cc(C)c(=O)[nH]c2=O)CC1N(C)C` (centres unmarked) is reported as > 230 nM (Human alphaherpesvirus 1; cytopathic effect; HEL).
`CCCCCCC(CC=CCCCCCCCC(=O)OCCOCn1cnc2c(=O)[nH]c(N)nc21)OC(=O)CCCCC1SCC2NC(=O)NC21` (centres unmarked) gave an EC50 of 70100 nM (human cytomegalovirus; viral replication, plaque reduction; HFF, AD169).
`CN(C)CCNC(=O)c1cc(-c2ccccc2)nc2ccccc12` has an EC50 of > 10000 nM (Enterovirus A71; cytopathic effect; RD, US/AK/16-19516).
With `Nc1ncnc2c1c(Cl)cn2[C@@H]1O[C@H](CO)[C@@H](O)[C@H]1O` the EC50 was 620 ± 60 nM (Trypanosoma evansi; parasite growth, resazurin; AnTat 3.3; 48 h plus 24 h resazurin).
With `O=C1/C(=N\NC(=S)NN=Cc2cccs2)c2ccccc2N1Cc1ccccc1` the EC50 was > 4000 nM (respiratory syncytial virus; viral replication; HeLa).
`C=CCc1ccc(OCC(=C)C)c(OC)c1` has an EC50 of 209 µg/mL (Spodoptera frugiperda; antifeedant activity, no-choice test; larvae, Zea mays).
For `O=C(Nc1cc(F)c(F)c(F)c1)c1ccc(F)c(S(=O)(=O)N2CCC(NC(=O)C3CCC4(CC3)CCN(C(=O)CC35CC6CC(CC(C6)C3)C5)CC4)CC2)c1`, the EC50 was 2710 nM (Hepatitis B virus; viral replication, qPCR, item: HBV DNA; HepAD38; 4 days).
`CC(=Nc1ccccc1)c1c(C)cc(=O)n(O)c1O` has an EC50 of 2200 nM (Hepatitis B virus; viral replication, inhibitor, qPCR; HepDES19; 72 h).
`O=C(CC12CC3CC(CC(C3)C1)C2)NCCOCCOCCOCC(=O)NC1CCN(S(=O)(=O)c2cc(C(=O)Nc3cc(F)c(F)c(F)c3)ccc2F)CC1` has an EC50 of 1190 nM (Hepatitis B virus; viral replication, qPCR, item: HBV DNA; HepAD38; 6 days).
For `O=C(NCc1cccc(F)c1F)c1cn(Cc2ccc(F)cc2)cc(O)c1=O`, the EC50 was 670 ± 200 nM (human cytomegalovirus; viral replication, GFP reporter virus; HFF; 168 h).

For quick reference, copied from above:
`CCC1c2cc(OC)c(O)cc2C(c2ccc(O)c(OC)c2)C1C` (centres unmarked) gave an EC50 of 2530 µg/mL (Spodoptera frugiperda; antifeedant activity, no-choice test; larvae, Zea mays).
`Cc1cn(C2CC(N(C)C)C(CO)O2)c(=O)[nH]c1=O` (centres unmarked) gave an EC50 of > 370 nM (Punta Toro virus; viral replication; Vero).
`O=C(CC12CC3CC(CC(C3)C1)C2)NC12CCC(C(=O)NC3CCN(S(=O)(=O)c4cc(C(=O)Nc5cc(F)c(F)c(F)c5)ccc4F)CC3)(CC1)CC2` has an EC50 of 560 nM (Hepatitis B virus; viral replication, qPCR, item: HBV DNA; HepAD38; 4 days).
